Experimental data gathered from unrelated publications.
Protocols differ between the studies behind these lines.
Effect on: metabolic stability
Host: human

SMILES	matrix	tested at	pH	endpoint	result
Cn1ccc([C@H](CCO)Nc2nc(N3CCOCC3)c3cc(-c4ccccc4)sc3n2)n1	hepatocytes	–	–	hepatocyte CLint	15 µL/min/10⁶ cells
O=C(N1CCCCC1)C12CC(c3ccccc3)(C1)C2(Cl)Cl	liver microsomes	2 µM	pH 7.4	microsomal CLint	65 µL/min/mg
CCC(CC)CNC(=N)NC(=N)NCCCCCCNC(=N)NC(=N)NCC(CC)CC	liver microsomes	2 µM	–	scaled CLint	2.6 mL/min/kg
COc1ccc(C(N)=O)cn1	liver microsomes	1 µM	pH 7.4	microsomal CLint	< 3 µL/min/mg
CN(CCC#N)c1nc(NCC[C@H]2CCCN2C)nc2sc(-c3ccccc3)cc12	hepatocytes	–	–	hepatocyte CLint	230 µL/min/10⁶ cells
Cn1ncc2cc(CN3CCC(F)(F)C(COc4cccc(F)c4)C3)ccc21 (stereo not shown)	liver microsomes	–	–	scaled CLint	94.5 mL/min/kg
O=C(N1CCCCC1)C12CC(c3ccccc3)(C1)C2(Br)Br	liver microsomes	2 µM	pH 7.4	microsomal CLint	139 µL/min/mg
COc1cc(N)c(C(N)=O)cn1	liver microsomes	–	–	microsomal CLint	< 5 µL/min/mg
COc1ccc(CN2CCC(F)(F)C(COc3ccc(F)c(C)c3)C2)cc1F (stereo not shown)	liver microsomes	–	–	scaled CLint	135 mL/min/kg
Cc1[nH]nc2c1N=C(c1ccccc1Cl)c1cnc(N3CCOCC3)cc1N2	liver microsomes	1 µM	pH 7.4	scaled CLint	14.9 mL/min/kg
CNc1cc(C)c(C(N)=O)cn1	hepatocytes	1 µM	pH 7.4	hepatocyte CLint	3.9 µL/min/10⁶ cells
Cn1ncc2cc(CN3CCC(F)(F)C(COc4ccc(C#N)c(F)c4)C3)ccc21 (stereo not shown)	liver microsomes	–	–	scaled CLint	148 mL/min/kg
Cc1ccc2c(c1)nc(NC(=O)c1cccc(C(F)(F)F)c1)n2[C@H]1CC[C@H](N)CC1	liver microsomes	–	–	microsomal CLint	27 µL/min/mg
COc1cc(C)c(C(N)=O)cn1	hepatocytes	1 µM	pH 7.4	hepatocyte CLint	21 µL/min/10⁶ cells
Cc1nc2ccc(S(=O)(=O)n3nc(SCc4ccc(Cl)cc4)nc3N)cc2s1	liver microsomes	1 µM	pH 7.4	microsomal CLint	273 µL/min/mg
CCC1(CC)CC(=O)N(C2c3cc(C(=O)NC4c5ccccc5CC4O)ccc3OC2(C)COC)C(=N)N1 (stereo not shown)	hepatocytes	–	–	hepatocyte CLint	< 2.5 µL/min/10⁶ cells
Fc1ccc(OCC2CN(Cc3ncn4ccccc34)CCC2(F)F)cc1 (stereo not shown)	liver microsomes	–	–	scaled CLint	260 mL/min/kg
O=C(c1ccc(-c2cccc(C(F)(F)F)c2)cc1)N1CCN(c2ncccn2)CC1	liver microsomes	–	–	microsomal CLint	45 µL/min/mg
COc1ccc(CN2CCC(F)(F)C(COc3ccc(F)c(F)c3)C2)cc1F (stereo not shown)	liver microsomes	–	–	scaled CLint	157 mL/min/kg
CNC(=O)C1CCCN(C(=O)C2CC3CCC2N3C(=O)[C@@H]2C[C@@H](O)CN2C(=O)NCc2cccc(Cl)c2F)C1 (mixture of isomers)	liver microsomes	–	–	microsomal CLint	26.1 µL/min/mg
CNc1cc(N)c(C(N)=O)cn1	liver microsomes	1 µM	pH 7.4	microsomal CLint	< 3 µL/min/mg
O=C(Nc1nc(C(F)(F)F)co1)C1c2ccccc2Oc2ccccc21	liver microsomes	1 µM	pH 7.4	scaled CLint	262 mL/min/kg
